Measured values collected from several papers.
Compare with care: the assays were run in different laboratories. Numbers after ± are the reported error.
Sequence of UniProt P52895 (whole entry, looked up): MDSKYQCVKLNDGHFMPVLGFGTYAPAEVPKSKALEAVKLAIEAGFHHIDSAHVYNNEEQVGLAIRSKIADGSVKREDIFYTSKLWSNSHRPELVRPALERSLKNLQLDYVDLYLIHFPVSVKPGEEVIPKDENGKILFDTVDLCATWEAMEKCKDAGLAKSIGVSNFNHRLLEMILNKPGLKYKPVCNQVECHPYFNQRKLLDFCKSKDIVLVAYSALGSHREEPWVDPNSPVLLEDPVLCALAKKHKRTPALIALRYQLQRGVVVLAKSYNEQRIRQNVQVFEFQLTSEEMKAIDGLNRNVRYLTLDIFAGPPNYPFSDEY
Sequence of UniProt O15151 (whole entry, looked up): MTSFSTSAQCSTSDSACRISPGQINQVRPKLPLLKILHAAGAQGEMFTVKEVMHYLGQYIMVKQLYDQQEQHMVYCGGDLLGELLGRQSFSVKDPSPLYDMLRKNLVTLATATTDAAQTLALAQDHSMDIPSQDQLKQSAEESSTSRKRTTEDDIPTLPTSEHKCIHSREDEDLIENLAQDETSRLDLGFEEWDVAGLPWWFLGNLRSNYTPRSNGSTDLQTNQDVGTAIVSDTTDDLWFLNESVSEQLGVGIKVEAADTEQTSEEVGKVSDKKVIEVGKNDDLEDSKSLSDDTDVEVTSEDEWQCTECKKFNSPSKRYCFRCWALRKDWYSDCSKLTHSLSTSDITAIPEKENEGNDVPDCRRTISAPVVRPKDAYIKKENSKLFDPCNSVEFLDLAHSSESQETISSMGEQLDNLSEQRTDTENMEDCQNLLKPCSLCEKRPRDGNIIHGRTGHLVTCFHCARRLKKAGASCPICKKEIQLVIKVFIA
Sequence of UniProt P07550 (whole entry, looked up): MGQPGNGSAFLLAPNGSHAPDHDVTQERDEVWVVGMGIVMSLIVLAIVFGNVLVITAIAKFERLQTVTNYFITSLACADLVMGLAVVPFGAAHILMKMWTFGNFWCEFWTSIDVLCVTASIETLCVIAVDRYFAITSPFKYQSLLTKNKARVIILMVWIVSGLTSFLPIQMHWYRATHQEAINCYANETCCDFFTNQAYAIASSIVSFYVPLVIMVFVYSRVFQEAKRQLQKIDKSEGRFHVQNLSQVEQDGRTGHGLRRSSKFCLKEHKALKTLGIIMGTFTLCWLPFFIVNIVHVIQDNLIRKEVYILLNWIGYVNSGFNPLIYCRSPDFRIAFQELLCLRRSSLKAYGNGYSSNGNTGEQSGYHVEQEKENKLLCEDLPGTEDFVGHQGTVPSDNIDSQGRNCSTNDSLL
Sequence of UniProt Q9NR22 (whole entry, looked up): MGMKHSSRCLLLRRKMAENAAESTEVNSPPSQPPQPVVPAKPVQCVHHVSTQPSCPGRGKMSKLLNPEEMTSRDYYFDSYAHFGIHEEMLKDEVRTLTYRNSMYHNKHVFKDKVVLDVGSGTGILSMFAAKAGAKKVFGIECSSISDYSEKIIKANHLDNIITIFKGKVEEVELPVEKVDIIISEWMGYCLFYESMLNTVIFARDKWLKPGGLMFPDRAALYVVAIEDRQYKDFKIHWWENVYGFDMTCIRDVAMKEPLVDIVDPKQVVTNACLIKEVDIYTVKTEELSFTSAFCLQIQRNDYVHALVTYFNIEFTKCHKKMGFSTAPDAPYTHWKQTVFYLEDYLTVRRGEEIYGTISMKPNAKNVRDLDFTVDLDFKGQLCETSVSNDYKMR
Sequence of UniProt P35372 (whole entry, looked up): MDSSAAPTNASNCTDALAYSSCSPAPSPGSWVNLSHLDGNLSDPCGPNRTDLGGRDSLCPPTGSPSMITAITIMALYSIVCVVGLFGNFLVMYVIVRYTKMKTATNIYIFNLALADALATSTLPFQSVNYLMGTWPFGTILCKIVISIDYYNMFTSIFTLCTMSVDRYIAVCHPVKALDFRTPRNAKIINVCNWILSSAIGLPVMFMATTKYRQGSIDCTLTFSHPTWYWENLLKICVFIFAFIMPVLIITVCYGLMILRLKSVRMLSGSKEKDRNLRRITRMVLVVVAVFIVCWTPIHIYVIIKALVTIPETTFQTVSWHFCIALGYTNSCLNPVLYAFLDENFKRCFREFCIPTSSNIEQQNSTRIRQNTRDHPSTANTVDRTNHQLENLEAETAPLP
Sequence of UniProt Q8E0N2 (whole entry, looked up): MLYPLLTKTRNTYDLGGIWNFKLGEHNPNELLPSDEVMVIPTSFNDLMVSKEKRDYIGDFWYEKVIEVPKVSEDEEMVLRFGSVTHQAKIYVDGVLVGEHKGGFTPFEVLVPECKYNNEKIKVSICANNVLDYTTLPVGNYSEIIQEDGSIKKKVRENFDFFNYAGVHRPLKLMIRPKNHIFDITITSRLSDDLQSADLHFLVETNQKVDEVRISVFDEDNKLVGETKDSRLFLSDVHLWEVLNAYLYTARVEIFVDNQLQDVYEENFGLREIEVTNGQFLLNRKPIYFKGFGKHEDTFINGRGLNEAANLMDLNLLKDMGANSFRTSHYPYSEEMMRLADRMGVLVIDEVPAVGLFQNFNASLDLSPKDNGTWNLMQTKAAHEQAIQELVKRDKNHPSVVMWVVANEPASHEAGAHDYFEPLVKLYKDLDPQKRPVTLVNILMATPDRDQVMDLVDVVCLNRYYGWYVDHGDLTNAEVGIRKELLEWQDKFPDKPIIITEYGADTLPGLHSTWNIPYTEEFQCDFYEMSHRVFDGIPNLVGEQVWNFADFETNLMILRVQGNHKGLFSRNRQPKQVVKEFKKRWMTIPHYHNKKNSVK
Sequence of UniProt O43148 (whole entry, looked up): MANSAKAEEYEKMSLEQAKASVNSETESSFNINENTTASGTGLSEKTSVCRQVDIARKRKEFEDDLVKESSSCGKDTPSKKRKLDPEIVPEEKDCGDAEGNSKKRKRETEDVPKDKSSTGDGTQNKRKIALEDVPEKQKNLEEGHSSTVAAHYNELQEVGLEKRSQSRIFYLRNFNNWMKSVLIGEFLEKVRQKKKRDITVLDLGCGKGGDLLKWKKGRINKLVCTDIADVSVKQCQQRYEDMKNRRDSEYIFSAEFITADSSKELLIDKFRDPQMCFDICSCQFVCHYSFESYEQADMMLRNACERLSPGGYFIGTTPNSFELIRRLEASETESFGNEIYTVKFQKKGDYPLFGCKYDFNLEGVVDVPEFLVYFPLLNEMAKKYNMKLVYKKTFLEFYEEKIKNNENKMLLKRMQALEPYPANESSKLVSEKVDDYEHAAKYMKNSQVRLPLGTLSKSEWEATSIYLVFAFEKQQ
Sequence of UniProt Q13393 (whole entry, looked up): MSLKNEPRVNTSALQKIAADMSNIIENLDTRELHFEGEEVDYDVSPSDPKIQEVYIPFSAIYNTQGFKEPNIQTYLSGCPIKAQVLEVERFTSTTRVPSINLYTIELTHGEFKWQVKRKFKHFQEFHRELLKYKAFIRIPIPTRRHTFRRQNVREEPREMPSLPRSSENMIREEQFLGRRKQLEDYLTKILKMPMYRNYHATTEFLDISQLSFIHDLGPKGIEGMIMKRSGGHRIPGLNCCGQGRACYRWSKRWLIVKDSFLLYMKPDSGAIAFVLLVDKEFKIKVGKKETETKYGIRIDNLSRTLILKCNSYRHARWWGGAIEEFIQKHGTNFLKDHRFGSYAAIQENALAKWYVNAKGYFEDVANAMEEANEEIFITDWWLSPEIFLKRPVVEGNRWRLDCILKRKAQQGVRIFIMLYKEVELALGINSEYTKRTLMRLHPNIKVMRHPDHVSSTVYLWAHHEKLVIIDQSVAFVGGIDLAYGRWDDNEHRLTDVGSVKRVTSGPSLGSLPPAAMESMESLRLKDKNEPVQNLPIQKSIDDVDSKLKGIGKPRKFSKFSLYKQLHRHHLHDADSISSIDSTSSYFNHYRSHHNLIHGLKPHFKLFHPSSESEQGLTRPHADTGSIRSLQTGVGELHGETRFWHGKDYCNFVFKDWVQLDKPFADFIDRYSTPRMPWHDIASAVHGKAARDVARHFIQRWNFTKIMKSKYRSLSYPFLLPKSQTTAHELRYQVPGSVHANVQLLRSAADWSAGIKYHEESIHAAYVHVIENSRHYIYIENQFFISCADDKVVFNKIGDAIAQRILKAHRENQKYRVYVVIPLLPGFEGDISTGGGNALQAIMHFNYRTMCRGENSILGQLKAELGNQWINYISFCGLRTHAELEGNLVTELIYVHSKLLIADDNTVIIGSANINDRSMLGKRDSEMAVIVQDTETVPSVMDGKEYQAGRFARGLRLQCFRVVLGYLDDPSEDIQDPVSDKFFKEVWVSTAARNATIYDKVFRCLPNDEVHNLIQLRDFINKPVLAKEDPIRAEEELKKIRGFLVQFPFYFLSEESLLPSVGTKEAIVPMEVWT

Nc1ccn(CC2COP(=O)(OCCNC(=O)CCCCC3SCC4NC(=O)NC43)CO2)c(=O)n1 (mixture of isomers) gave an IC50 of 31.4 ± 3.05 µM (Sodium-dependent multivitamin transporter (Canis lupus familiaris, UniProt A0A8I3MY61); biotin uptake; MDCK-MDR1; added: [3H]-biotin).
C[C@@]12CC[C@@H]3c4cc(Cl)c(O)c(Cl)c4CC[C@H]3[C@@H]1CCC2=O gave an IC50 of 4.6 µM (Aldo-keto reductase family 1 member C2 (AKR1C2, Homo sapiens, UniProt P52895); enzyme activity, inhibitor, absorbance; pH 9).
CC[C@H](C)[C@H](N)C(=O)N[C@@H](CC(N)=O)C(=O)N[C@H]1CSC(=O)[C@H](CC(C)C)NC(=O)[C@H](CC(C)C)NC(=O)[C@H](Cc2ccccc2)NC(=O)[C@H](CC(N)=O)NC1=O has an IC50 of 0.00117 µM (Receptor-histidine kinase AgrC (agrC, Staphylococcus aureus, UniProt O07911)).
Cc1cc(/C=C/c2ccc3cc(N(C)C)ccc3[n+]2C)c(C)n1-c1ccccc1 gave an IC50 of 5.1 ± 2.28 µM (mRNA cap guanine-N(7) methyltransferase (RNMT, Homo sapiens, UniProt O43148); enzyme activity, inhibitor).
CC(C)C(=O)Nc1cccc(-c2nn[nH]n2)c1 gave an IC50 of greater than 100 µM (Metallo-beta-lactamase VIM-2 (VIM-2, Escherichia coli, UniProt Q5U7L7); enzyme activity, inhibitor, fluorescence; with preincubation).
N#Cc1cn([C@@H]2O[C@H](CSCC[C@H](N)C(=O)O)[C@@H](O)[C@H]2O)c2ncnc(N)c12 has an IC50 of 2 µM (Protein arginine N-methyltransferase 8 (PRMT8, Homo sapiens, UniProt Q9NR22); enzyme activity, inhibitor, radiometric).
With CC[C@H](C)[C@H](NC(=O)[C@@H](N)Cc1ccc(O)cc1)C(=O)N[C@@H](Cc1ccccc1)C(=O)N[C@@H](CC(N)=O)C(=O)N[C@@H](CC(C)C)C(=O)O the IC50 was 6.52e-05 ± 5.8e-17 µM (Mu-type opioid receptor (OPRM1, Homo sapiens, UniProt P35372); binding, radioligand displacement; DU-145; added: [3H]DAMGO).
For CC[C@H](C)[C@H](NC(=O)CN(CCOC)C(=O)CN(CCOC)C(=O)CN(CCOC)C(=O)CN(CCOC)C(=O)CN(CCOC)C(=O)CN(CCOC)C(=O)CN(CCOC)C(=O)CN(CCOC)C(=O)CN(CCOC)C(=O)CNCCOC)C(=O)N[C@@H](CO)C(=O)N[C@@H](CCC(N)=O)C(=O)N[C@H](C(=O)N[C@@H](CC(N)=O)C(=O)N[C@@H](CCC(=O)O)C(=O)N[C@@H](CCCCN)C(=O)N[C@H](C(=O)N[C@@H](CC(N)=O)C(=O)N[C@@H](CCC(N)=O)C(=O)N[C@@H](CO)C(=O)N[C@@H](CC(C)C)C(=O)N[C@@H](C)C(=O)N[C@@H](Cc1ccccc1)C(=O)N[C@H](C(=O)N[C@@H](CCCNC(=N)N)C(=O)N[C@@H](CCCCN)C(=O)N[C@@H](CO)C(=O)N[C@@H](CC(=O)O)C(=O)N[C@@H](CCC(=O)O)C(=O)O)[C@@H](C)CC)[C@@H](C)CC)C(C)C, the IC50 was greater than 200 µM (hRSV fusion protein 5-helix bundle; binding, fluorescence polarization; added: Fl-C35 tracer 5 nM).
O=C(O)CNCC(=O)O gave an IC50 of greater than 200 µM (IMP-28 metallo-beta-lactamase; enzyme activity, inhibitor, FC5 fluorescent substrate; 60 pM enzyme, 1 µM ZnSO4).
Cn1c(C(=O)NCCN2CCC3(CC2)C(=O)NCN3Cc2cccnc2)cc2ccccc21 has an IC50 of greater than 20 µM (Phospholipase D1 (Homo sapiens, UniProt Q13393); enzyme activity, inhibitor).
With CC(N)CCc1ccccc1Cl (racemic) the IC50 was greater than 10 µM (Beta-2 adrenergic receptor (ADRB2, Homo sapiens, UniProt P07550); β-arrestin recruitment, antagonist).
The IC50 of CC(C)C[C@H]1CNC(=O)N2C[C@H](C[C@H]2C(N)=O)SCC(=O)NCCNC(=O)CSC[C@H](NC(=O)[C@H](Cc2ccccc2)NC(=O)[C@H](CO)NC(=O)[C@@H](N)[C@@H](C)O)C(=O)N[C@@H](CCC(=O)O)C(=O)N[C@@H](Cc2ccc(O)cc2)C(=O)N[C@@H](Cc2c[nH]c3ccccc23)C(=O)N[C@@H](C)C(=O)N[C@@H](CC(C)C)CNC(=O)N1 is reported as 0.119 ± 0.031 µM (Protein Mdm4, with p53 (MDM4, Homo sapiens, UniProt O15151); inhibitor, HTRF).
C[C@@H]1CN(c2nnnc3c2sc2nc(N4CCOCC4)c4c(c23)CCCC4)CCN1 has an IC50 of 2.4 ± 0.4 µM (Beta-glucuronidase (Streptococcus agalactiae serotype V, UniProt Q8E0N2); Streptococcus agalactiae).
